{"data": "Measured values gathered from unrelated publications", "note": "Lines come from different studies, so protocols differ. ± gives the spread as reported."}
{"Compound": "CSCC[C@@H]1NC(=O)[C@@H]2CSSC[C@H](NC(=O)[C@H](CO)NC(=O)[C@H](C)N)C(=O)N[C@@H](CCCNC(=N)N)C(=O)N[C@@H]([C@@H](C)O)C(=O)N3CCC[C@H]3C(=O)N[C@@H](CCCCN)C(=O)N[C@@H](CC(=O)O)C(=O)N[C@H]3CSSC[C@H](NC(=O)[C@H](CCCCN)NC(=O)[C@H](CCCNC(=N)N)NC(=O)[C@H](CC(N)=O)NC1=O)C(=O)N[C@@H](CCCCN)C(=O)N[C@H]1CSSC[C@H](NC(=O)[C@@H]4CCCN4C(=O)[C@H](CC(=O)O)NC(=O)[C@H](C)NC3=O)C(=O)N[C@@H](C)C(=O)N[C@@H](CCCCN)C(=O)N[C@@H](CCC(=O)O)C(=O)N[C@@H]([C@@H](C)O)C(=O)NCC(=O)N[C@@H](CSSC[C@@H](C(N)=O)NC(=O)[C@H](CCCNC(=N)N)NC(=O)[C@H](CC(N)=O)NC1=O)C(=O)N1CCC[C@H]1C(=O)N[C@@H](Cc1ccc(O)cc1)C(=O)NCC(=O)N[C@@H](CCCCN)C(=O)N2", "test system": "DA rat pristane-induced arthritis, serum", "setting": "subcutaneous, 0.1 mg/kg single dose at onset, 21 days", "quantity": "Phosphorus", "result": "5.12 mg/dL"}
{"Compound": "O=C(c1ccc(F)cc1)C1CCN(C2Cc3c(cccc3OCC[18F])CC2O)CC1 (single isomer, unassigned; (-))", "test system": "Sprague-Dawley rat, male, whole brain", "setting": "60 min post-injection", "quantity": "tissue uptake", "result": "0.425 ± 0.075 %ID/g"}
{"Compound": "CC(=O)[O-].F[P-](F)(F)(F)(F)F.[Co+2].c1ccc(CN2CCCN3CCN(CCCN(Cc4ccccc4)CC3)CC2)cc1", "test": "cyclic voltammetry, item: first Co2+/Co3+ couple", "test system": "acetonitrile", "how to read": "reference: SHE", "quantity": "E1/2", "result": "0.392 V"}
{"Compound": "C#Cc1c(F)ccc2cc(O)cc(-c3ncc4c(N5CC6CCC(C5)N6C(=O)CC(C)CC(=O)OCC)nc(OC[C@@]56CCCN5C[C@H](F)C6)nc4c3F)c12 (some centres unmarked)", "test": "metabolic stability", "test system": "mouse, liver microsomes", "setting": "1 µM, pH 7.4", "quantity": "half-life", "result": "11.1 min"}
{"Compound": "CCCCCCCC(=O)OC[C@H](NC(=O)[C@H](CO)NC(=O)CN)C(=O)N[C@@H](Cc1ccccc1)C(=O)N[C@@H](CC(C)C)C(=O)N[C@@H](CO)C(=O)N1CCC[C@H]1C(=O)N[C@@H](CCC(=O)O)C(=O)N[C@@H](Cc1cnc[nH]1)C(=O)N[C@@H](CCC(N)=O)C(=O)N[C@@H](CCCNC(=N)N)C(=O)N[C@H](C(=O)N[C@@H](CCC(N)=O)C(=O)N[C@@H](CCC(N)=O)C(=O)N[C@@H](CCCNC(=N)N)C(=O)N[C@@H](CCCCN)C(=O)N[C@@H](CCC(=O)O)C(=O)N[C@@H](CO)C(=O)N[C@@H](CCCCN)C(=O)N[C@@H](CCCCN)C(=O)N1CCC[C@H]1C(=O)N1CCC[C@H]1C(=O)N[C@@H](C)C(=O)N[C@@H](CCCCN)C(=O)N[C@@H](CC(C)C)C(=O)N[C@@H](CCC(N)=O)C(=O)N1CCC[C@H]1C(=O)N[C@@H](CCCNC(=N)N)C(=O)O)C(C)C", "test system": "human, plasma", "setting": "intravenous infusion, 5 µg/kg/h", "how to read": "reference: 1 µg/kg/h dose", "quantity": "AUC fold change", "result": "6 fold"}
{"Compound": "C=CCn1cnc2c(NCc3ccc(C)s3)nc(N[C@H](CC)CO)nc21", "quantity": "pKa1", "result": 5.53}
{"Compound": "CN(C(=O)Cc1ccc(Cl)c(Cl)c1)[C@@H](CN1CCCC1)c1ccccc1", "test system": "mouse liver microsomes", "quantity": "intrinsic clearance", "result": "7.4 mL/min/g"}
{"Compound": "CC[C@H](C)C(=O)N1CCC(NC(=O)Nc2ccc(OC(F)(F)F)c(F)c2)CC1", "test system": "healthy volunteers", "setting": "oral, 8 mg single dose, 14 (unit not given)", "quantity": "subjects with severe TEAE", "result": "0%"}
{"Compound": "Cc1ccc(OCC(=O)N(Cc2cccs2)c2ccn[nH]2)cc1", "test system": "Crl:CD(SD) rat, bred female", "setting": "oral, 300 mg/kg/day, mean per litter, developmental toxicity", "quantity": "corpora lutea count", "result": 16.9}
{"Compound": "C[C@H](Nc1c(-c2c(F)cc(OCCCN(C)C)cc2F)c(Cl)nc2ncnn12)C(F)(F)F", "test system": "BALB/c mice, male and female", "setting": "intraperitoneal, 48 h", "quantity": "lowest dose causing intolerance", "result": "> 10 mg/kg"}
{"Compound": "O=C(O)CC[C@H](NC(=O)O[C@@H](CCCCNC(=O)c1ccc([18F])cc1)C(=O)O)C(=O)O", "test system": "mouse, PC-3 PIP/flu xenografts, liver", "setting": "30 min", "quantity": "tissue uptake", "result": "11 ± 1.77 %ID/g"}
{"Compound": "N=C(N)NCc1ccc(C(=O)NCCCC[C@H](NC(=O)CCCCCCC(=O)NCCCC[C@H](NC(=O)N[C@@H](CCC(=O)O)C(=O)O)C(=O)O)C(=O)O)cc1[131I]", "test system": "SCID mouse, PC-3 xenografts, kidneys", "setting": "21 h", "quantity": "tissue uptake", "result": "3.03 ± 2.96 %ID/g"}
{"Compound": "CN(C)C(CNC(=O)Nc1cc(C(F)(F)F)ccc1N1CCOCC1)c1ccncc1 (centres unmarked)", "test system": "mouse, serum", "setting": "intraperitoneal, 240 mg/kg single dose", "quantity": "serum direct bilirubin", "result": "0 mg/dL"}
{"Compound": "Cc1ccc(/C=C/C(=O)O)cc1-c1cc2c(cc1C)C(C)(C)CCC2(C)C", "test system": "Sprague-Dawley rat, male", "setting": "oral, 100 mg/kg, 6 h, sesame oil vehicle", "quantity": "blood cholesterol", "result": "83 ± 7.5 mg/dL"}
{"Compound": "CC(=O)N[C@@H](CCCNC(=N)N)C(=O)N[C@@H](CCCCN)C(=O)N[C@@H](CCC(=O)N=S(c1ccc(Cl)cc1)c1ccccc1O)C(=O)N[C@H](C(=O)N[C@@H](Cc1ccc(O)cc1)C(N)=O)C(C)C (some centres unmarked)", "test system": "PBS", "setting": "0.2 mM, up to 24 h, pH 7.4, 37 °C", "quantity": "chemical stability", "result": "stable"}
{"Compound": "C/C=C/C=C/C/C=C/CCCCCCCc1cccc(O)c1O", "test system": "female Kunming mice tumour-bearing, lungs", "setting": "intravenous, 10 mg/kg, 0.5 h", "quantity": "tissue concentration", "result": "20500 ± 2320 ng/g"}
{"Compound": "CCNc1cc2[o+]c3cc(NCC)c(C)cc3c(-c3ccccc3C(=O)OCCOCC[18F])c2cc1C", "test system": "rat", "setting": "120 min", "how to read": "reference: heart over lung", "quantity": "tissue uptake ratio", "result": 2.2}
{"Compound": "COC(=O)C[C@](O)(CCCC(C)(C)OC(C)=O)C(=O)O[C@@H]1C(OC)=C[C@]23CCCN2CCc2cc4c(cc2[C@H]13)OCO4", "test system": "CD1 mouse, pancreas", "setting": "oral, 1 mg/kg, 0.5 h", "quantity": "tissue concentration", "result": "179 ng/mL"}
{"Compound": "CC(C)[C@H](NC(=O)CNC(=O)[C@H](CCC(N)=O)NC(=O)[C@H](C)N)C(=O)O", "test system": "healthy male volunteers", "setting": "intravenous, 90 mg/kg/h, 2 h, added: LPS 2 ng/kg", "quantity": "subjects with serious AE", "result": "0%"}
{"Compound": "[2H]C([2H])([2H])C([2H])([2H])C([2H])([2H])OC(C(=O)OC1CCNCC1)(c1ccccc1)c1ccccc1", "test": "item: wound", "test system": "healthy Japanese male", "setting": "oral, 10 mg, 16 days, multiple ascending dose", "quantity": "adverse events", "result": "0%"}
{"Compound": "C=C1C(=O)O[C@@H]2[C@H]1CC[C@H](C)[C@@]1(O[Si](C)(C)C)C=CC(=O)[C@@]21C", "test": "propidium iodide flow cytometry", "test system": "primary splenocytes, BALB/c mouse", "setting": "48 h, 10% fetal calf serum", "quantity": "CC50", "result": "0.5 ± 0.7 µg/mL"}
{"Compound": "CC[C@H](C)[C@@H]1NC(=O)[C@H](CCCNC(=N)N)NC(=O)[C@H](CCCCN)NC(=O)[C@H](Cc2ccc(O)cc2)NC(=O)[C@H](CC(C)C)NC(=O)[C@@H]2CCCN2C(=O)[C@H](C)NC(=O)CNC(=O)CNC(=O)[C@H](CO)NC(=O)CNC(=O)CNC(=O)[C@H](CO)NC(=O)[C@H](CCC(=O)O)NC(=O)[C@H](CC(C)C)NC(=O)[C@H](CC(C)C)NC(=O)[C@H](CCCCN)NC(=O)[C@H](CCCCN)NC(=O)[C@H]([C@@H](C)CC)NC(=O)[C@H]([C@@H](C)CC)NC(=O)[C@H](CCCNC(=N)N)NC(=O)[C@H](CCCCN)NC(=O)[C@H](Cc2ccc(O)cc2)NC(=O)[C@H](CC(C)C)NC(=O)[C@@H]2CCCN2C(=O)CNC(=O)CNC(=O)[C@@H](NC(=O)CN)CSSC[C@@H](C(N)=O)NC(=O)[C@H](CC(C)C)NC(=O)[C@H](CCCCN)NC(=O)[C@H](CCCCN)NC(=O)[C@H]([C@@H](C)CC)NC1=O", "test": "hemolysis", "test system": "uninfected human erythrocytes", "setting": "1 h", "quantity": "HC10", "result": "34.1 ± 4.8 µM"}
{"Compound": "C[C@@H]1CC[C@H]2[C@@H](C)CO[C@@H]3O[C@@]4(C)CC[C@@H]1[C@]32OO4", "test": "item: compound", "test system": "rat, plasma", "setting": "2.00 ng/mL spiked, 24 h, autosampler at 4 °C", "quantity": "stability accuracy", "result": "97.5%"}
{"Compound": "CC[C@H](C)[C@@H]1NC(=O)[C@H](CCCCN)NC(=O)[C@H](CCCCN)NC(=O)[C@H](Cc2ccc(O)cc2)NC(=O)[C@H](CC(C)C)NC(=O)[C@@H]2CCCN2C(=O)CNC(=O)CNC(=O)[C@@H](NC(=O)CN)CSSC[C@@H](C(=O)N[C@@H](CCC(=O)O)C(=O)N[C@@H](CO)C(N)=O)NC(=O)[C@H](CC(C)C)NC(=O)[C@H](CCCCN)NC(=O)[C@H](CCCCN)NC(=O)[C@H]([C@@H](C)CC)NC(=O)[C@H]([C@@H](C)CC)NC(=O)[C@H](CCCCN)NC(=O)[C@H](CCCCN)NC(=O)[C@H](Cc2ccc(O)cc2)NC(=O)[C@H](CC(C)C)NC(=O)[C@@H]2CCCN2C(=O)[C@H](C)NC(=O)CNC(=O)CNC(=O)[C@H](CO)NC(=O)CNC(=O)CNC(=O)[C@H](CO)NC(=O)[C@H](CCCCN)NC(=O)[C@H](CC(C)C)NC(=O)[C@H](CC(C)C)NC(=O)[C@H](CCCCN)NC(=O)[C@H](CCCCN)NC(=O)[C@H]([C@@H](C)CC)NC1=O", "test": "hemolysis", "test system": "uninfected human erythrocytes", "setting": "1 h", "quantity": "HC10", "result": "34.9 ± 5.5 µM"}
{"Compound": "CC(=O)c1ncn2c(=O)n(C)nnc12", "test system": "mouse CD-1 male, liver microsomes", "setting": "50 µM, 2 h, pH 7.4", "how to read": "reference: time zero", "quantity": "remaining compound", "result": "70 ± 1%"}
{"Compound": "COc1ccc(C)cc1NC(=O)OC1CC2CCCC(C1)N2Cc1ccc(CC[18F])cc1 (centres unmarked)", "test system": "BALB/c mice, EMT6 tumour", "setting": "1 h", "how to read": "reference: tumour over muscle", "quantity": "tumour to tissue ratio", "result": 1.92}
{"Compound": "CC(C)[C@H](NC(=O)CNC(=O)[C@H](CCC(N)=O)NC(=O)[C@H](C)N)C(=O)O", "test": "Probably drug-related", "test system": "human", "setting": "30 mg/kg, 3 days, thrice daily dosing", "quantity": "subjects with adverse events", "result": "0%"}
{"Compound": "O=c1c2cc(Cl)ccc2sc2c(NCc3ccccc3)nc3ccccc3c12", "test system": "BALB/c nude mice", "setting": "i.p., 60 mg/kg", "quantity": "body weight gain", "result": "5.55 ± 0.45%"}
{"Compound": "O=P([O-])([O-])Oc1ccc(-c2cc(=S)ss2)cc1.[Na+].[Na+]", "test": "HPLC", "test system": "water", "setting": "25 °C", "quantity": "solubility", "result": "~2100 µg/mL"}
{"Compound": "O=C(O)CCn1c(=O)oc2cc(Cl)c(Cl)cc21", "test system": "rat liver microsomes", "quantity": "intrinsic clearance", "result": "< 0.5 mL/min/g"}
{"Compound": "CCCCCCCC[C@@H]1NC(=O)[C@@H](Cc2ccccc2)NC(=O)[C@H](CCN)NC(=O)[C@@H](NC(=O)[C@H](CCN)NC(=O)[C@@H](NC(=O)[C@H](CCN)NC(=O)c2ccc(-c3ccccc3)cc2)[C@@H](C)O)CCNC(=O)[C@H]([C@@H](C)O)NC(=O)[C@H](CCN)NC(=O)[C@H](CCN)NC1=O", "test system": "rat, plasma", "setting": "intravenous, single dose", "quantity": "Vd", "result": "0.195 to 0.313 L/kg"}
{"Compound": "CN[C@](C)(C[18F])C(=O)O", "test system": "mouse, bone", "setting": "2 h, tumour-bearing", "quantity": "tracer uptake", "result": "2 %ID/g"}
{"note": "A few entries again:"}
{"Compound": "CC(=O)[O-].F[P-](F)(F)(F)(F)F.[Co+2].c1ccc(CN2CCCN3CCN(CCCN(Cc4ccccc4)CC3)CC2)cc1", "test": "cyclic voltammetry, item: first Co2+/Co3+ couple", "test system": "acetonitrile", "how to read": "reference: SHE", "quantity": "E1/2", "result": "0.392 V"}
{"Compound": "O=C(c1ccc(F)cc1)C1CCN(C2Cc3c(cccc3OCC[18F])CC2O)CC1 (single isomer, unassigned; (-))", "test system": "Sprague-Dawley rat, male, whole brain", "setting": "60 min post-injection", "quantity": "tissue uptake", "result": "0.425 ± 0.075 %ID/g"}
